{"data": "Measured values of several laboratories", "note": "Each line is one published result; not all experiments were run side by side. “And” joins repeats or separate records; there may be more than shown. ± gives the spread as reported.", "sequence of UniProt A5GZW8 (whole entry, looked up)": "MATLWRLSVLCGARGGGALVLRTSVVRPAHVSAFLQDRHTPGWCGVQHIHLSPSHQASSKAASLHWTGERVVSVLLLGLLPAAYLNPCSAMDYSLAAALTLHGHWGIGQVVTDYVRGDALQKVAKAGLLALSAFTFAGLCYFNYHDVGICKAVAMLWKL", "sequence of UniProt D0VWV4 (whole entry, looked up)": "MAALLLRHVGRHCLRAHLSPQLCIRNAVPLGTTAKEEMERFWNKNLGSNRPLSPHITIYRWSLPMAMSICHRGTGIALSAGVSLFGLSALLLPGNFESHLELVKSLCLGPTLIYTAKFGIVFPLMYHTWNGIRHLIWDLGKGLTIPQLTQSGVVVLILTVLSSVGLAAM", "sequence of UniProt Q00987 (whole entry, looked up)": "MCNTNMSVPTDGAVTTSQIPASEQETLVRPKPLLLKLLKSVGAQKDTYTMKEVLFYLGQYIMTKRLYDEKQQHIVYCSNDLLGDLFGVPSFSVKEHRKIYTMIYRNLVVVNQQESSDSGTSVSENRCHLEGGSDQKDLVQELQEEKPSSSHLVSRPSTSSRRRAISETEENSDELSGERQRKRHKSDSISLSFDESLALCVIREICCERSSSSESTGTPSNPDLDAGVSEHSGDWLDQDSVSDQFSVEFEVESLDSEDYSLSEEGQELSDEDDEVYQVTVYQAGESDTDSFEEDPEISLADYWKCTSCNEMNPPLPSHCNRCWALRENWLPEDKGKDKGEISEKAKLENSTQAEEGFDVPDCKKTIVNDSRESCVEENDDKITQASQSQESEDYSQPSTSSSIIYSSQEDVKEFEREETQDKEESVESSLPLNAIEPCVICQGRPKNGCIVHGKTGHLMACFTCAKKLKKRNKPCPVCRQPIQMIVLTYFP", "sequence of UniProt Q007T0 (whole entry, looked up)": "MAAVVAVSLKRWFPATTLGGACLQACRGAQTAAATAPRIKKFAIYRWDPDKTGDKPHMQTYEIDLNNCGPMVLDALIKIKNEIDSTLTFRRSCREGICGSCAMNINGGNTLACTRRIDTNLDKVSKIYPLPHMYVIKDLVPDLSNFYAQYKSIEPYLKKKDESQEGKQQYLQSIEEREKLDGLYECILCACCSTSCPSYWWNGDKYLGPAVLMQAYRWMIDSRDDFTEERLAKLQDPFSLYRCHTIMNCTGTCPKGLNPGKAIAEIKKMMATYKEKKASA", "sequence of UniProt Q7M759 (whole entry, looked up)": "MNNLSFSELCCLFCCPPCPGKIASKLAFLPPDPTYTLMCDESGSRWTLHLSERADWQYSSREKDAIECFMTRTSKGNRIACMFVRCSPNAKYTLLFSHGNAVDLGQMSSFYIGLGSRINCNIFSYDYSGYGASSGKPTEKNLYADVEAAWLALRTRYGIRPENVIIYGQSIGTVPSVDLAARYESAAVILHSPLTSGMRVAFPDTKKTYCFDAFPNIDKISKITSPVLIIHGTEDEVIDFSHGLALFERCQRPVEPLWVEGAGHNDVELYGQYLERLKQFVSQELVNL", "sequence of UniProt Q9UM07 (whole entry, looked up)": "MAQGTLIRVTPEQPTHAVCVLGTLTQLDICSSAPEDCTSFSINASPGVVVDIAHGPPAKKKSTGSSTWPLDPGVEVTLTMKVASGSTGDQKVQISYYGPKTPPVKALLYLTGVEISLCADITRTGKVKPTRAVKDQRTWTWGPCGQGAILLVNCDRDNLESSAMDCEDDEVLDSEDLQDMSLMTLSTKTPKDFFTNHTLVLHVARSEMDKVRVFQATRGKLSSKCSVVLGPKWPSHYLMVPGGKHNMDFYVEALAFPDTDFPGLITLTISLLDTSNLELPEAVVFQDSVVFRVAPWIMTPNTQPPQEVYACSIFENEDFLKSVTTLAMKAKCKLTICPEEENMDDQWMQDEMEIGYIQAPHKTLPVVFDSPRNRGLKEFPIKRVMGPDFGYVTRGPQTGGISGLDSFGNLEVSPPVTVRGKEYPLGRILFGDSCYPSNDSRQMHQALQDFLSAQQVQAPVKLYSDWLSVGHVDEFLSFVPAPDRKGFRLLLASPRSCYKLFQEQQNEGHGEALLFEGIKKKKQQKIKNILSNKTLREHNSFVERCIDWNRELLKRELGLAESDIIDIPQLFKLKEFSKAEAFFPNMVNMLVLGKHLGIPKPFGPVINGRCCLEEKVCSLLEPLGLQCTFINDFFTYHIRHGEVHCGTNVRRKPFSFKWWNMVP", "sequence of UniProt Q6DWJ6 (whole entry, looked up)": "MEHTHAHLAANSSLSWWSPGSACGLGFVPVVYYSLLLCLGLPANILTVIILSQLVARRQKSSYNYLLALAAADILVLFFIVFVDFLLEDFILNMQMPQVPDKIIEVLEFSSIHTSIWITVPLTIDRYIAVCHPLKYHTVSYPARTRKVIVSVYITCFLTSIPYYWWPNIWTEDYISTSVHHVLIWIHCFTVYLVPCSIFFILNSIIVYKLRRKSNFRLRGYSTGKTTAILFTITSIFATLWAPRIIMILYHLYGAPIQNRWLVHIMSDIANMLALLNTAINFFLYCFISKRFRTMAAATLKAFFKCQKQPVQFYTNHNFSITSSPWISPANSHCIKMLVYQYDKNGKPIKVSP", "sequence of UniProt P35372 (whole entry, looked up)": "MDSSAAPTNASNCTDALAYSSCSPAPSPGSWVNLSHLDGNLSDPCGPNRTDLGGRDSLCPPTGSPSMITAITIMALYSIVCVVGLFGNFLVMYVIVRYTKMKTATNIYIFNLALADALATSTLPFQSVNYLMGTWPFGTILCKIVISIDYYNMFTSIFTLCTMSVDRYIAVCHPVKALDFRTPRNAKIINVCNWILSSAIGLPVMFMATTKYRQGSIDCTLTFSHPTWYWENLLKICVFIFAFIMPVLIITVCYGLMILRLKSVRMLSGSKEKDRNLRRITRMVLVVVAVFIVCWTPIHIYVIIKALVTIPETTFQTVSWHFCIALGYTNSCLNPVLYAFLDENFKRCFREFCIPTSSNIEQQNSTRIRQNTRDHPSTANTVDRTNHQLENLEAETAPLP", "sequence of UniProt O35409 (whole entry, looked up)": "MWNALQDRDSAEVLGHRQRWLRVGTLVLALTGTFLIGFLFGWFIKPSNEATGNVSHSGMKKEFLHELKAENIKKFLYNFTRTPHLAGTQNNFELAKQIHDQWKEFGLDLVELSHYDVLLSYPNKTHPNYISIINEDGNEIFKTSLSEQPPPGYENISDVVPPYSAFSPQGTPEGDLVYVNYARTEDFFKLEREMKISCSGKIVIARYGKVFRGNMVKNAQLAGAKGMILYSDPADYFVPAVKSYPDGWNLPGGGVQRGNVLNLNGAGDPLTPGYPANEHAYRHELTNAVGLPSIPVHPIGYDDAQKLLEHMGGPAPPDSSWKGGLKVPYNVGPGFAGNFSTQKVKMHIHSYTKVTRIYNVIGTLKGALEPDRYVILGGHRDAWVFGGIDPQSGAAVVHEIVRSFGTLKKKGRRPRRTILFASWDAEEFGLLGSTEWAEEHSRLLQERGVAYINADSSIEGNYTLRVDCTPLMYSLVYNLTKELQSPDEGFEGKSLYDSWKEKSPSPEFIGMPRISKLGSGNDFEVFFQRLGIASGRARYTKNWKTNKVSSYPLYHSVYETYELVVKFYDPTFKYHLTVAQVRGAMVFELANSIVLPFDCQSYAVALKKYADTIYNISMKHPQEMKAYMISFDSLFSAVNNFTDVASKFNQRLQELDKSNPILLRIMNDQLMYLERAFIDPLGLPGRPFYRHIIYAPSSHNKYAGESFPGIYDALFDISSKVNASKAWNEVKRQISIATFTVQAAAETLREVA", "sequence of UniProt Q8TD19 (whole entry, looked up)": "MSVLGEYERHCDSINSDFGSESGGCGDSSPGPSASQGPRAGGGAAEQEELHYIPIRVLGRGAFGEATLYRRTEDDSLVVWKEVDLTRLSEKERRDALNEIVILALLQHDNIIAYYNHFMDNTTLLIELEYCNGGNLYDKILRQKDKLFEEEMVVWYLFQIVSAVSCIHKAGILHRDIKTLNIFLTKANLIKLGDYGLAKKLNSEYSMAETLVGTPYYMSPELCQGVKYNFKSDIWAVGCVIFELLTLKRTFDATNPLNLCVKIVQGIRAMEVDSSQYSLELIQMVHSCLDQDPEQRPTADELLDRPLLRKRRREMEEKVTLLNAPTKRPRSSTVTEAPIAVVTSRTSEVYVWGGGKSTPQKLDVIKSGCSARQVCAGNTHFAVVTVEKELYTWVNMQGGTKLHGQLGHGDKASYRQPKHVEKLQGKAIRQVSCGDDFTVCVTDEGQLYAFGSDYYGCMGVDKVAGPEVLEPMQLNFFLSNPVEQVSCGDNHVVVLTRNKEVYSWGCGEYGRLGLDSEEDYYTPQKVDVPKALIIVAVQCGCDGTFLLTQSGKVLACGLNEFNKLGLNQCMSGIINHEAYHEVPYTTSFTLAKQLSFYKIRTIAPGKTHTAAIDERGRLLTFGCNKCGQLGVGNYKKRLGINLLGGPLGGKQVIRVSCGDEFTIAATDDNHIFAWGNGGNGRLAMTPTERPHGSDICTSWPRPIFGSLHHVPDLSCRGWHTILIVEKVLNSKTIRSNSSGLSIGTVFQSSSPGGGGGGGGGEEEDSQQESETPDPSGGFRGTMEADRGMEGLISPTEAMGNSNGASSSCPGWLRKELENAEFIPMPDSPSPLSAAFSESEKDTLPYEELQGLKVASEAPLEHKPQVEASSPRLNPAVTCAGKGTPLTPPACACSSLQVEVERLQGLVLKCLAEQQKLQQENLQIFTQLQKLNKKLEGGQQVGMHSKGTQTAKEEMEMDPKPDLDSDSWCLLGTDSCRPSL", "sequence of UniProt P47936 (whole entry, looked up)": "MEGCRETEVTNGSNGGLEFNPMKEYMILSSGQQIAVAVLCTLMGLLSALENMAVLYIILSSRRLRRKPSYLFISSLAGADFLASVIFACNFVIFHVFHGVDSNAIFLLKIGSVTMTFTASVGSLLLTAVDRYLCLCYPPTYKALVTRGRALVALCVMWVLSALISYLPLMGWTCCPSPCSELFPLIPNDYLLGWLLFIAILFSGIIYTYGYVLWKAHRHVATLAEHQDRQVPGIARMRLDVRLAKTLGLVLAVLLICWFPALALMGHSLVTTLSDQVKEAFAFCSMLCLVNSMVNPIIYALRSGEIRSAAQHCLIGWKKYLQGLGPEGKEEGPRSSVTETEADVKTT"}
{"SMILES": "C#CCCCCOc1ccc2c(c1)CCCN2C(=O)CCl", "target": "ADH5 (Homo sapiens, UniProt P11766)", "assay": "mass spectrometry profiling", "test system": "H460 cell lysate", "setting": "100 µM over 10 µM, UniProt P11766", "how to read": "baseline: high over low concentration", "quantity": "reactivity ratio", "result": 1.48}
{"SMILES": "COc1ccc2cc1Oc1cc3c(cc1OC)CCN(C)C3Cc1ccc(cc1)Oc1c(O)c(OC)cc3c1C(C2)N(C)CC3 (stereo not drawn)", "target": "Glideosome-associated protein 50 (GAP50, Plasmodium falciparum, UniProt Q8I2X3)", "assay": "binding, surface plasmon resonance", "setting": "1:1 binding model", "quantity": "kon", "result": "575 M⁻¹ s⁻¹"}
{"SMILES": "CC(C)CC(O)(CC(C)C)c1cn(C(=O)N2CCCC2)nn1", "target": "Alpha/beta hydrolase domain-containing protein 17B (Abhd17b, Mus musculus, UniProt Q7M759)", "assay": "probe labelling, inhibitor, refers to: Fam108b1", "test system": "mouse, brain", "setting": "i.p., 0.8 mg/kg, 4 h, single peptide", "how to read": "baseline: treated over vehicle mice, lower = stronger inhibition", "quantity": "activity ratio-of-ratios", "result": "1.23 and 1.75 and 1.62 and 1.88"}
{"SMILES": "CN(C)[C@H](CNC(=O)/C=C/c1cccc2ccccc12)Cc1ccc(O)cc1", "target": "Mu-type opioid receptor, with GoA (OPRM1, Homo sapiens, UniProt P35372)", "assay": "receptor activation, agonist", "quantity": "Emax", "result": "73 ± 4%"}
{"SMILES": "CS(C)(=O)=Nc1ccc(-c2ccc(-c3nc4cc(O[C@@H]5CO[C@H]6[C@@H]5OC[C@H]6O)[nH]c4cc3F)cc2)cc1", "target": "MINK1 (Homo sapiens, UniProt Q8N4C8)", "assay": "enzyme activity, inhibitor", "setting": "10 µM", "quantity": "inhibition", "result": "5%"}
{"SMILES": "CC(C)[C@H]1NC(=O)C[C@H]2/C=C/CCSSC[C@@H](NC1=O)C(=O)N[C@H](Cc1cccc3ccccc13)C(=O)NCC(=O)O2", "target": "MST1R (Homo sapiens, UniProt Q04912)", "assay": "enzyme activity, inhibitor", "setting": "10 µM", "quantity": "inhibition", "result": "12.7%"}
{"SMILES": "COCC1CCCCN1C(=O)n1cc(C(O)(c2ccccc2)c2ccccc2)nn1 (stereo not drawn)", "target": "Lysosomal protective protein (Ctsa, Mus musculus, UniProt P16675)", "assay": "enzyme activity, inhibitor, competitive ABPP-SILAC, refers to: Ctsa", "test system": "mouse T-cells", "setting": "concentration not given, 4 h, treated in situ", "how to read": "baseline: DMSO", "quantity": "activity ratio", "result": 1.34}
{"SMILES": "O=C(N[C@@H]1c2ccccc2C[C@H]1N1CCCC1)c1ccc(-c2ccnc3[nH]ccc23)nc1", "target": "MAP2K2 (Homo sapiens, UniProt P36507)", "assay": "binding, competition with immobilised ligand", "setting": "3 µM", "quantity": "remaining binding", "result": "55%"}
{"SMILES": "CC[C@H](C)[C@H](NC(=O)[C@H](CO)NC(=O)[C@H](CO)NC(=O)[C@H](CCC(=O)O)NC(=O)[C@H](CCC(=O)O)NC(=O)[C@H](CCCCN)NC(=O)[C@H](CO)NC(=O)[C@@H](NC(=O)[C@H](CO)NC(=O)[C@H](CC(C)C)NC(=O)[C@H](Cc1ccccc1)NC(=O)[C@H](CCCNC(=N)N)NC(=O)[C@H](C)NC(=O)[C@H](Cc1ccccc1)NC(=O)[C@H](Cc1ccccc1)NC(=O)[C@@H]1CCCN1C(=O)[C@H](CC(C)C)NC(=O)[C@H](C)NC(=O)[C@H](CCCCN)NC(=O)CNC(=O)[C@H](CCC(N)=O)NC(=O)[C@H](CCC(N)=O)NC(=O)[C@H](CC(=O)O)NC(=O)[C@H](CC(N)=O)NC(=O)[C@@H]1CCCN1C(=O)[C@H](Cc1ccc(O)cc1)NC(=O)[C@H](C)NC(=O)[C@@H](N)CCSC)C(C)C)C(=O)N[C@@H](CCCCN)C(=O)N[C@@H](CO)C(=O)N1CCC[C@H]1C(=O)N[C@@H](CO)C(=O)N1CCC[C@H]1C(=O)N[C@@H](CC(=O)O)C(=O)N[C@@H](Cc1c[nH]cn1)C(=O)N[C@@H](CCC(=O)O)C(=O)N[C@H](C(=O)N[C@@H](CO)C(=O)N[C@H](C(=O)N[C@@H](CCCNC(=N)N)C(=O)N[C@@H](CCCCN)C(=O)N[C@@H](Cc1ccc(O)cc1)C(=O)N1CCC[C@H]1C(=O)N[C@@H](CO)C(=O)N[C@@H](CC(=O)O)C(=O)N[C@@H](Cc1c[nH]c2ccccc12)C(=O)N[C@@H](CCC(=O)O)C(=O)N[C@@H](CCC(=O)O)C(=O)N[C@@H](Cc1c[nH]c2ccccc12)C(=O)O)[C@@H](C)O)[C@@H](C)CC", "target": "uncharacterized protein (Microcystis aeruginosa MRC, UniProt B2G3D0, E294A/N296A)", "assay": "ITC", "test system": "Microcystis aeruginosa", "setting": "concentration not given, pH 8.0, 25 °C", "quantity": "binding stoichiometry", "result": "0.84 ± 0.05"}
{"SMILES": "CC[C@H](C)[C@@H]1NC(=O)[C@H](CC(C)C)NC(=O)CNC(=O)[C@H](CCCNC(=N)N)NC(=O)[C@H](Cc2c[nH]c3ccccc23)NC(=O)[C@H](CCSC)NC(=O)[C@H](CO)NC(=O)[C@H](CCC(=O)O)NC(=O)[C@H](Cc2ccccc2)NC(=O)[C@H](CC(=O)O)NC(=O)[C@H]([C@@H](C)O)NC(=O)CNC(=O)[C@H](CCC(=O)O)NC(=O)[C@H]([C@@H](C)O)NC(=O)CNC(=O)[C@H](CC(=O)O)NC1=O", "target": "MDM2 (Homo sapiens, UniProt Q00987)", "assay": "MDM2-ligand binding, inhibitor, AlphaLISA competition", "setting": "3.125 µM, with: GST-tagged MDM2 ligand", "how to read": "lower = stronger inhibition", "quantity": "AlphaLISA signal", "result": "2260 a.u. and 2240 a.u."}
{"SMILES": "C[C@]1(COC(=O)Cc2ccc(O)c(O)c2)[C@H](C(=O)O)N2C(=O)/C(=C/c3ccccn3)[C@H]2S1(=O)=O", "target": "Beta-lactamase (blaOXA-33, Acinetobacter baumannii, UniProt Q8RLA6)", "assay": "inhibitor", "quantity": "kinact", "result": "0.022 ± 0.002 s⁻¹"}
{"SMILES": "CON(C(=O)c1cn(C)nc1C(F)F)C(C)Cc1c(Cl)cc(Cl)cc1Cl (stereo not drawn)", "target": "SDHD/SDHC/SDHB (Sus scrofa, UniProt A5GZW8+D0VWV4+Q007T0)", "assay": "enzyme activity, inhibitor, DCIP reduction", "test system": "pig", "setting": "0.3 µM, with: DCIP 10 µM", "quantity": "reaction velocity", "result": "0.00238 µM/s and 0.00258 µM/s and 0.00222 µM/s"}
{"SMILES": "C[C@H](NCc1ccc(-c2ccc(C(F)(F)F)cc2)cc1)C(N)=O", "target": "DCLK1 (Homo sapiens, UniProt O15075)", "assay": "cell-free assay, competition with immobilised ligand", "setting": "1 µM", "quantity": "inhibition", "result": "33%"}
{"SMILES": "CC[C@H](C)[C@H](NC(=O)[C@H](CCCNC(=N)N)NC(=O)[C@H](CCCNC(=N)N)NC(=O)[C@H](CC(C)C)NC(=O)[C@H](Cc1ccccc1)NC(=O)CNC(=O)CNC(=O)[C@@H](N)Cc1ccc(O)cc1)C(=O)N[C@@H](CCCNC(=N)N)C(=O)N1CCC[C@H]1C(=O)N[C@@H](CCCCN)C(=O)N[C@@H](CC(C)C)C(=O)N[C@@H](CCCCN)C(=O)O", "target": "GPR139 (Homo sapiens, UniProt Q6DWJ6)", "assay": "GαoB activation, agonist, BRET", "test system": "HEK293T/17", "setting": "40 µM", "quantity": "Emax", "result": "61.9% and 48.6%"}
{"SMILES": "CCOC(=O)[C@](CC)(CCCSCCOCCOCCNC(=O)c1ccc(-c2c3ccc(=N)c(S(=O)(=O)O)c-3oc3c(S(=O)(=O)O)c(N)ccc23)c(C(=O)O)c1)NC(=O)c1ccc(C2CC2)c(Cc2ccc(F)cc2)n1", "target": "Cnr2 (Mus musculus, UniProt P47936)", "assay": "cAMP, agonist", "quantity": "Emax", "result": "80%"}
{"SMILES": "CC(C)OC(=O)OCOC(=O)C(CCC(=O)O)CP(=O)(OCOC(=O)OC(C)C)OCOC(=O)OC(C)C (stereo not drawn)", "target": "Folh1 (Mus musculus, UniProt O35409)", "assay": "radioligand uptake, PET", "test system": "mouse bearing 22Rv1 tumour, salivary gland", "setting": "intravenous, 0.25 mg/kg, 15 min before, imaging at 60 min, with: [18F]F-DCFPyL", "how to read": "baseline: vehicle", "quantity": "uptake reduction", "result": "87%"}
{"SMILES": "CCOC(=O)[C@@H]1Cc2c(cc([N+](=O)[O-])cc2[N+](=O)[O-])[C@H](O)[C@]12C(=O)Nc1ccc(Br)cc12", "target": "IGF1R (Homo sapiens, UniProt P08069)", "assay": "binding, competition with immobilised ligand", "setting": "0.1 µM", "quantity": "remaining binding", "result": "72%"}
{"SMILES": "N[C@H](C(=O)N1CCCC1)C1CCN(c2nccc3c(-c4ncc(Cl)cc4Cl)cccc23)CC1", "target": "PADI4 (Homo sapiens, UniProt Q9UM07)", "assay": "thermal shift", "setting": "0.00302 µM", "quantity": "melting temperature", "result": "53.2 °C and 53.5 °C"}
{"SMILES": "O=C1NC(=O)c2c1c1cc(F)c[n+]3c1c1c2c2cc(O)ccc2[n]1[Ru-4]312([N]=C=S)[S+]3CC[S+]1CC[S+]2CC3 (stereo not drawn)", "target": "CSNK2A2 (Homo sapiens, UniProt P19784)", "assay": "enzyme activity", "setting": "100 nM, human enzyme, with: 10 µM ATP", "how to read": "baseline: untreated", "quantity": "remaining activity", "result": "113%"}
{"SMILES": "CN(C)CCCSC(=S)N1CCN(C(=O)/C=C/c2coc3ccccc3c2=O)CC1", "target": "Nucleoprotein (N, Tomato spotted wilt virus, UniProt P25999, R94A)", "assay": "binding, microscale thermophoresis", "setting": "31.25 µM", "how to read": "dose series", "quantity": "MST response", "result": "843 a.u."}
{"SMILES": "CN(C)[C@H]1C[C@@]23CC[C@@]4(O2)C(=CC[C@]2(C)[C@@H](c5ccc6ccncc6c5)CC[C@H]24)C=C3[C@@H](O)[C@@H]1O", "target": "NEK9 (Homo sapiens, UniProt Q8TD19)", "assay": "ATP probe labelling, inhibitor, KiNativ profiling", "setting": "0.1 µM", "quantity": "inhibition", "result": "4.9%"}
{"SMILES": "COc1ccccc1-c1n[nH]c2nc(N[C@H]3CC[C@H](NS(=O)(=O)CC(C)C)CC3)ncc12", "target": "Tubulin alpha-1A chain (Homo sapiens, UniProt Q71U36)", "assay": "competitor, bead pull-down competition, refers to: TUBA1A", "test system": "Leishmania donovani extract", "setting": "10 µM", "how to read": "baseline: vehicle", "quantity": "relative abundance", "result": 3.02}
{"SMILES": "CC(=O)N[C@@H](CCC(N)=O)C(=O)N[C@@H](CC1CCCCC1)C(=O)N[C@@H](CNC(=O)CCl)C(=O)N[C@@H](CC(C)C)C(=O)N[C@@H](Cc1ccccc1)C(=O)O", "target": "Beta sliding clamp (Escherichia coli, UniProt P0A988)", "assay": "binding, isothermal titration calorimetry", "setting": "37 °C", "quantity": "-TΔS", "result": "2.3 kcal/mol"}
{"SMILES": "C/C(=N\\OCCCN1CCCCC1)c1ccc(C(F)(F)F)cc1", "target": "GABA-A receptor; alpha-1/beta-2/gamma-2 (Homo sapiens, UniProt P14867+P18507+P47870)", "assay": "agonist, FLIPR membrane potential", "setting": "10 µM", "quantity": "activation", "result": "10%"}
{"note": "A few entries again:"}
{"SMILES": "CC(C)[C@H]1NC(=O)C[C@H]2/C=C/CCSSC[C@@H](NC1=O)C(=O)N[C@H](Cc1cccc3ccccc13)C(=O)NCC(=O)O2", "target": "MST1R (Homo sapiens, UniProt Q04912)", "assay": "enzyme activity, inhibitor", "setting": "10 µM", "quantity": "inhibition", "result": "12.7%"}
{"SMILES": "CCOC(=O)[C@](CC)(CCCSCCOCCOCCNC(=O)c1ccc(-c2c3ccc(=N)c(S(=O)(=O)O)c-3oc3c(S(=O)(=O)O)c(N)ccc23)c(C(=O)O)c1)NC(=O)c1ccc(C2CC2)c(Cc2ccc(F)cc2)n1", "target": "Cnr2 (Mus musculus, UniProt P47936)", "assay": "cAMP, agonist", "quantity": "Emax", "result": "80%"}
